Measured values from different studies.
Each numbered part is a random draw from the data of one study; scales do not carry over between parts.

Sample 1 — technique: protein binding microarray; molecule type: double-stranded DNA, one strand shown; sample: in vitro; concentration: not given; reference: not given; direction: higher = stronger binding
Target: Histone acetyltransferase KAT6A, both winged helices, GST fusion (KAT6A, Homo sapiens, UniProt Q92794, residues 1-181)
Notes: 8-mer, flanks averaged, mean of 2 arrays, mostly near background
Target sequence (chain): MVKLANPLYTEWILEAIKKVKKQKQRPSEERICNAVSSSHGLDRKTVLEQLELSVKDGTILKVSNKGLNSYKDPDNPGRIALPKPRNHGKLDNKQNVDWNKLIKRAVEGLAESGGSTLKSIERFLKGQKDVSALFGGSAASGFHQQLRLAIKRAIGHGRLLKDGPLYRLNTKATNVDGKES
| Sequence | E-score |
| --- | --- |
| ACGAACCG | 0.139 |
| CTAATGAA | -0.0904 |
| ACCGGCAT | 0.276 |
| ATGAAATA | -0.0553 |
| CAATGACG | -0.028 |
| CCCACGTC | -0.0697 |
| ACCTTGCA | -0.156 |
| ACTAACGC | 0.103 |
| AAAACCCT | -0.173 |
| ATTTTGCG | 0.027 |
| ACAGAGAG | -0.237 |
| ACTGCACT | -0.114 |
| CAGCGAAG | -0.0564 |
| GGATACCC | 0.00364 |
| CCCGCGTC | 0.224 |
| AAAGGGAT | -0.191 |

Sample 2 — technique: protein-binding microarray; molecule type: double-stranded DNA, one strand shown; sample: in vitro; concentration: 250 nM; notes: 60-bp whole probe; together with: salmon DNA 0.4 mg/ml; reference: random background probes; direction: higher = stronger binding; constant ends, left off below: GCCTAGCAC … GTCTTGATTCGCTTGACGCTGCTG
Target: Interferon regulatory factor 5, full length, phosphomimetic (IRF5, Homo sapiens, UniProt Q13568-2, residues 1-514, K96S/S451D/S453D/S456D/S462D)
| Sequence | log fluorescence |
| --- | --- |
| TTAGGTTTCCTTCTCCTGTAGTGCTAG | 0.92 z-score |
| TTAGGTATCGGTATCGGTCAGTGCTAG | 8.6 z-score |
| CCCCCTTTTATATTGTAAGCGTGCTAG | 0.0488 z-score |
| GACGGACTGGAATTTCGGGACGTGCTA | 0.887 z-score |
| GACGGTTTCCTTATCCTGCCGTGCTAG | 0.732 z-score |
| TGAGATATCAGACTGGATTAGTGCTAG | -0.144 z-score |
| CGGGGGTGGGGAGAGCCCCTGTGCTAG | 1.21 z-score |
| TTAGAACTGAGGTTTCGATTAGTGCTA | 5.94 z-score |
| GTCGATTTCAGACTGGAGACGTGCTAG | 0.309 z-score |
| TTACTTCCCAATTGTCTTTTCGTGCTA | 1.6 z-score |
| GACGGTTTCGGGACTGGTGACGTGCTA | 4.94 z-score |
| TCAAATTACCTTTTCACACTGTGCTAG | 0.705 z-score |
| TTAGGTATCGGGTCTCGGTTAGTGCTA | 3.28 z-score |
| GTACATCTCTCTTAAATAGGGTGCTAG | 0.0601 z-score |
| TCCCCTCTAGGTCTTCTGAAGTGCTAG | -0.383 z-score |
| GTAGATTTCAGTCTCGATTAGTGCTAG | 2.79 z-score |
| GACGAACTGGGGTTTAGAGACGTGCTA | -0.475 z-score |
| TTAGTTATCCTACTGCTTTAGTGCTAG | 0.273 z-score |
| TTAGGTAACGGTCTCGGTTAGTGCTAG | 0.255 z-score |
| GACGATATCAGTTTCGAGAAGTGCTAG | 7.05 z-score |
| CACGGACTGCTTCTCCTGACGTGCTAG | -0.543 z-score |
| GACCATTTCAGTTTCGAGACGTGCTAG | 7.05 z-score |
| TTACATTTCGGGTTTCGATTAGTGCTA | 8.67 z-score |
| TCATTTTTTCTTTTATTACTGTGCTAG | 1.91 z-score |
| ACTGATTTCCACTTTCTTAAGTGCTAG | 1.69 z-score |

Sample 3 — technique: RNA Bind-n-Seq; molecule type: RNA; sample: in vitro; concentration: 365 nM; reference: no-protein control; direction: higher = stronger binding
Target: RNA binding protein fox-1 homolog 2, RRM domain, GST-SBP tag (RBFOX2, Homo sapiens, UniProt O43251-10, residues 100-194)
Notes: natural RNA segment, single round, ends assumed
Constant ends, left off below: GGGAGUUCUACAGUCCGACGAUC … UGGAAUUCUCGGGUGCCAA
Residues (chain): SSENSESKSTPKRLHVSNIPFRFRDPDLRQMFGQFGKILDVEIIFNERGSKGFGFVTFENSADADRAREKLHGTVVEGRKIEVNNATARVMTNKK
| Sequence | RBNS enrichment (R) |
| --- | --- |
| AAUAUUUGAUUGCAUAUUUAGUUGUAGUAAGAUUUUAUAAAAUACAUAAUCCUUUGUAUGUGCAGUUUGUAAAGUAUCUGCAGAAUUAAAUGCUCUUAUUUACAGAUCAG | 0.599 |
| ACAGAUUAUCUUUGGGCCUUUUCAUUAGAAAGCUGUUUGUUUGUCCCCCUGUUGGUACAUUUGGUUACCUCAUUUUGCCGUUUCAGAUUGUGAAAGCUCACAGGGGUGUU | 0.331 |
| UCUCCUUGAGCAUUGAGUACAGUACAUUUUGGAAGCUUGAAACCAAAAUUAAAGAGAGAGAGCGAGAACCUGUUUCUGCUUGGCCUGUUUUAUCCGAAAUAUGAAACCUC | 0.918 |
| UCUCCUUUGGUAGCAGCUCCCUGCCUCCAGGGCUUCCGCCACCAGCGUCUCUGCUGUGUUGCGCAGUGCAGUGGGGUGCAAGGGCUUUGUUUCUGCCUGCCUGAAAGAGA | 0.274 |
| CCCUUGCUUUAGGCUGUAUAUAGCCCCCCCCAACCCCCCAGCACAGAUCCCUGCCCAUGCUGUUCCCCUUAGCAGCCUGCCUGUUCAUAGAGCGUUUCCCCUCUUGCUAA | 1.66 |
| AUGUGUGUCGUUAACAUUUAUAUAUUUCCAUUCAAAAUAUGUAUUCAGUGUUUAUUUCCUCAAAACAGACUUUGUUAAUGUAGGAAAUCUCUCCAAGUGGAAACGUGCUA | 0.288 |
| ACAACAGAAGACGAAGGUCGCUUAGGCGAUACCCAUGAAGAAUCCAAGUUUAUUUCCCUUUCCAGCGUACAAUGUGUCCCUUCCUGGUUUUUUGAAACACCUCUCACUGC | 0.274 |
| UAGACCAUGCCUUCCUUUGUUCAUGAAGAUGACAAAAAUGGGAGAUGAGAUGGAUCAAGGUCAAAAUGAUCCUUUAUCUACAUUUUCCAAAGAGAAUCUAAUUUUUUCAG | 0.324 |
| UAAUUUAUUACAGUUUACUCUACUGCAUUUCUGUCAAGUUGAAAUGCAUGCCCUUCAGGGGAAGACUGUGAGUCAAGUUUAAUAAAUAAAAACCUAAUACUAAGCAAUAU | 0.632 |
| CGGGGGAACACACACAAAUGGAAAAAAAUUGUAAGCACUUUUUUUGUAAAACCAAUGUCUGUUUUGUUACAUACCUUUCAUGUUGUGCUUUGUAAAUGUCUUAUUUGUGU | 0.774 |
| CCCUGGGGCAUGGGAGGGUUUCACAAAAUUGCCCACUUGUUAAGGACCCUGACUCUAAUACCACACAAAACAGAACAAAAAUCCAGCAAAGAUAGGAUCGGAGAUACCUG | 1.09 |
| AUGAAGGAACGAGACAAGCAAAACAGAAAAGCCGAGAAGGAACAUGCAUGACUAAAAAGGCUUGAAGUUGCUUGUGAGCAAGAAGCUUUUUAUGCUGCUUUCUUACAUAG | 4.98 |

Sample 4 — technique: RNA Bind-n-Seq; molecule type: RNA; sample: in vitro; concentration: 200 nM; notes: whole 134-nt RNA, ends assumed; together with: 150 mM LiCl; reference: input library; direction: higher = stronger binding; library: 7-deaza-guanosine replaces G
Target: Fragile X messenger ribonucleoprotein 1, C-terminal low-complexity region (Fmr1, Mus musculus, UniProt P35922)
Constant ends, left off below: GGGAGUUCUACAGUCCGACGAUC … UGGAAUUCUCGGGUGUCAAGG
| Sequence | log2 enrichment |
| --- | --- |
| UCCUGUGCUACACAUCGUAUGUACCGAAUCGGGUUUUUUUGGGUUUGGGUUUUUUUGGGAAAGUAUUAUGUUACGCCGUUCGGAUCUGCA | -0.507 |
| UCAAGUCCUGUGCUACACAUCGUAUGUACCGAAUCGGUUUUUGGAAAAAGGUGGAAAGUAUUAUGUUACGCCGUUCGGAUCUGCACUUCC | -1.05 |
| AAGUCCUGUGCUACACAUCGUAUGUACCGAAUCGGGUUUUUGGGAAAGGGAAAGGGAAAGUAUUAUGUUACGCCGUUCGGAUCUGCACUU | -0.966 |
| CACAGACAACACGCACCCACACAGACACAGAGGGAAGGGGUUGGGAUGGCGACAGGGUGCACAGCAGGGCGGGGUAGGACCCCAGCCCCU | 0.148 |
| CAAGUCCUGUGCUACACAUCGUAUGUACCGAAUCGGUGGUUUUUUUGGAAAAAGGAAAGUAUUAUGUUACGCCGUUCGGAUCUGCACUUC | -1.14 |
| CCUGUGCUACACAUCGUAUGUACCGAAUCGGGGAAAAAAGGGAAAAAAGGGAAAAAAGGGAAAGUAUUAUGUUACGCCGUUCGGAUCUGC | 0.136 |
| CAAGUCCUGUGCUACACAUCGUAUGUACCGAAUCGGUUUUUGGAAAAAGGAAAGGAAAGUAUUAUGUUACGCCGUUCGGAUCUGCACUUC | -1.53 |
| CAAGUCCUGUGCUACACAUCGUAUGUACCGAAUCGGGGUUUGGGGUGGGGAGGGGAAAGUAUUAUGUUACGCCGUUCGGAUCUGCACUUC | -0.13 |
| UUGCUAAUCUAUAAAUUUUUUUUAUAUGAAAUAGCUCAUAGUCGGAAGCCGGCACCCUCAAAUGAGCCCGAAUAUCUAUGUAAAUGGAUG | -3.6 |
| UUGCCCUGGUGGCAUGCGGGGAGGAAGAGGUGGCCUCAUGGAUCGUGGUGGUCCCGGUGGAAUGUUCAGAGGUGGCCGUGGUGGAGACAG | 0.26 |
| UGUGCUACACAUCGUAUGUACCGAAUCGGGGAAAAAGGGGUUUUUUUGGGGUUUUUUUGGGGAAAGUAUUAUGUUACGCCGUUCGGAUCU | -1.68 |

Sample 5 — technique: universal PBM; molecule type: double-stranded DNA, one strand shown; sample: in vitro; concentration: not given; direction: higher = stronger binding
Target: Sal-like protein 4, full length isoform B (SALL4, Homo sapiens, UniProt Q9UJQ4-2, residues 1-616)
Notes: 8-mer, flanks averaged, mean of replicates
| Sequence | E-score |
| --- | --- |
| GAGTAGGC | -0.204 |
| AGAATACC | 0.058 |
| ACCCCTCG | -0.169 |
| CAGCTATC | -0.125 |
| AGGTCCAT | 0.0454 |
| AAAAGCAT | 0.231 |
| AACTAAGA | 0.158 |
| AATCAGCT | 0.0603 |
| AAAGACTT | 0.133 |
| GTGTTGTA | 0.127 |
| GCCTTTCA | -0.0461 |
| AATGGATG | 0.163 |
| ATTCAGCA | 0.147 |
| GCAGCGCA | -0.227 |
| AGCCTCCG | -0.361 |
| ACTGTTAG | -0.126 |
| TCGATTAA | 0.292 |
| CCCGGCCG | -0.291 |
| AATGGGTC | -0.162 |
| GGCTAAGA | -0.129 |
| CACTGTGG | -0.238 |
| AAGCTGCC | -0.188 |
| GCCAACGC | -0.218 |
| GCGGTTCA | -0.203 |
| AAAGCATA | 0.282 |

Repeated from above (sample 5):
| Sequence | E-score |
| --- | --- |
| CACTGTGG | -0.238 |
| AAAGCATA | 0.282 |
| CCCGGCCG | -0.291 |
| GCCTTTCA | -0.0461 |
| ACTGTTAG | -0.126 |
| AGCCTCCG | -0.361 |
